# Assay results gathered from unrelated publications.
# Lines come from different studies, so protocols differ. Several values in a cell are separate wells, animals, samples, runs or records.
# U2AF2: U2AF2 148-342 (Homo sapiens, UniProt P26368)
# Sequence of UniProt P26368 (whole entry, looked up): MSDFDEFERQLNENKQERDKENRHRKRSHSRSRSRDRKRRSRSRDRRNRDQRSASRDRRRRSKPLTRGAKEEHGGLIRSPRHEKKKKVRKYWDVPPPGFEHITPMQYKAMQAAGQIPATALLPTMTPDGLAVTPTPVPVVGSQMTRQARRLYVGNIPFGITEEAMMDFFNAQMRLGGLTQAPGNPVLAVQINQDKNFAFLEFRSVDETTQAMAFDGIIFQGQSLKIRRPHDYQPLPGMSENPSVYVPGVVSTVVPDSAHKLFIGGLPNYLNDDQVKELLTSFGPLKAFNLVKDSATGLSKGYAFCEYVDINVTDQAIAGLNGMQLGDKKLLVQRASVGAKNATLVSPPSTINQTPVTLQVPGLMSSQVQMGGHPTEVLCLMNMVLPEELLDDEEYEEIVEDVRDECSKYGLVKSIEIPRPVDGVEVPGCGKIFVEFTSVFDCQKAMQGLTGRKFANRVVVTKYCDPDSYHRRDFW
# B1: human desmocollin-3; sequence looked up; chain RWAPIPCSMQENSLGPFPLFLQQVESDAAQNYTVFYSISGRGVDKEPLNLFYIERDTGNLFCTRPVDREEYDVFDLIAYASTADGYSADLPLPLPIRVEDENDNHPVFTEAIYNFEVLESSRPGTTVGVVCATDRDEPDTMHTRLKYSILQQTPRSPGLFSVHPSTGVITTVSHYLDREVVDKYSLIMKVQDMDGQFFGLIGTSTCIITVTDSNDNAPTFRQNAYEAFVEENAFNVEILRIPIEDKDLINTANWRVNFTILKGNENGHFKISTDKETNEGVLSVVKPLNYEENRQVNLEIGVNNEAPFARDIPRVTALNRALVTVHVRDLDEGPECTPAAQYVRIKENLAVGSKINGYKAYDPENRNGNGLRYKKLHDPKGWITIDEISGSIITSKILDREVETPKNELYNITVLAIDKDDRSCTGTLAVNIEDVNDNPPEILQEYVVICKPKMGYTDILAVDPDEPVHGAPFYFSLPNTSPEISRLWSLTKVNDTAARLSYQKNAGFQEYTIPITVKDRAGQAATKLLRVNLCECTHPTQCRATSRSTGVILGKWAILAILLGIALLFSVLLTLVCGVFGATKGKRFPEDLAQQNLIISNTEAPGDDRVCSANGFMTQTTNNSSQGFCGTMGSGMKNGGQETIEMMKGGNQTLESCRGAGHHHTLDSCRGGHTEVDNCRYTYSEWHSFTQPRLGEKLHRCNQNEDRMPSQDYVLTYNYEGRGSPAGSVGCCSEKQEEDGLDFLNNLEPKFITLAEACTKR
# B2: STK38 (human); sequence looked up; chain AMTGSTPCSSMSNHTKERVTMTKVTLENFYSNLIAQHEEREMRQKKLEKVMEEEGLKDEEKRLRRSAHARKETEFLRLKRTRLGLEDFESLKVIGRGAFGEVRLVQKKDTGHVYAMKILRKADMLEKEQVGHIRAERDILVEADSLWVVKMFYSFQDKLNLYLIMEFLPGGDMMTLLMKKDTLTEEETQFYIAETVLAIDSIHQLGFIHRDIKPDNLLLDSKGHVKLSDFGLCTGLKKAHRTEFYRNLNHSLPSDFTFQNMNSKRKAETWKRNRRQLAFSTVGTPDYIAPEVFMQTGYNKLCDWWSLGVIMYEMLIGYPPFCSETPQETYKKVMNWKETLTFPPEVPISEKAKDLILRFCCEWEHRIGAPGVEEIKSNSFFEGVDWEHIRERPAAISIEIKSIDDTSNFDEFPESDILKPTVATSNHPETDYKNKDWVFINYTYKRFEGLTARGAIPSYMKAAK
# B3: spindlin-3 (human); sequence looked up; chain MKTPFGKAAAGQRSRTGAGHGSVSVTMIKRKAAHKKHRSRPTSQPRGNIVGCRIQHGWKDGDEPLTQWKGTVLDQVPVNPSLYLIKYDGFDCVYGLELHRDERVSSLEVLPNRVASSRISDTHLAEIMVGKAVEHIFETEEGSKNEWRGMVLAQAPVMNTWFYITYEKDPVLYMYQLLDDYKDGDLRILQDSNDSPLAEREPGEVIDSLVGKQVEYAKDDGSKRTGMVIHQVEAKPSVYFIKFDDDFHIYVYDLVKTS
# Sequence of UniProt Q00535 (whole entry, looked up): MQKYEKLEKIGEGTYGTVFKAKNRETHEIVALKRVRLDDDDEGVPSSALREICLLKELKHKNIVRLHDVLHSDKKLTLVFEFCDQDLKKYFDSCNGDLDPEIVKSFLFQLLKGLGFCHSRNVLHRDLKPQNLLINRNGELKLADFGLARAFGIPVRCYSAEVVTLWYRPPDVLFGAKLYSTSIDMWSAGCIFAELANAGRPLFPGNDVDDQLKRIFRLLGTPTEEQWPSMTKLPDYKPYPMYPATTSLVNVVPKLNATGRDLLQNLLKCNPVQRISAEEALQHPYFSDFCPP
Molecule,target or system,test,system,conditions,how to read,measurement,result
ENDPIGLEW,Jurkat expressing engineered TCR,"NFAT-eGFP reporter, fluorescence microscopy",peptide,"concentration not given, HLA-A*01:01 on EL4 cells",,GFP-positive cells,0.607%
KPGKGSETVV,"construct, MBP fusion, human SCRIB, PDZ 3-4",automated holdup,"peptide, crude extract","concentration not given, corrected by standard peak, unit not given","reference: biotin control resin, higher = stronger binding",binding intensity,0.136
human filamin C,CYB5R4 knockout human cells,"PP4 interaction, 3xFLAG-PP4C IP-MS",,concentration not given,reference: CYB5R4 KO over parental,log2 fold change,0.22
KEAFWDRCLSVANLMSSKMLQINA,"Cyclin-dependent kinase 5, with p25 (CDK5, Homo sapiens, UniProt Q00535)","phosphotransferase activity, radiometric",peptide,"concentration not given, 10% DMSO, with: histone substrate",reference: p5-WT peptide,activity change,54%
epoetin alfa,UT7/EPO,"RT-qPCR, measured: PTGS2",,"concentration not given, 90 min, normalized to HPRT1",reference: vehicle,mRNA level,4.5 fold
TASPAKETSF,"construct, MBP fusion, human SCRIB, PDZ 3-4",automated holdup,"peptide, crude extract","concentration not given, uncorrected, unit not given","reference: biotin control resin, higher = stronger binding",binding intensity,0.717
colistin,Pseudomonas aeruginosa,broth microdilution,clinical isolate RKI-No_600/15,,,MIC,2 µg/mL
GGGGGACUA (ssRNA),U2AF2,sequencing of bound RNA,RNA,motif only,,Kd,4.96 µM
B1 (human desmocollin-3),CYB5R4 knockout human cells,"PP4 interaction, 3xFLAG-PP4C IP-MS",,concentration not given,reference: CYB5R4 KO over parental,log2 fold change,0.84
NPDALPETLV,"construct, MBP fusion, human SCRIB, PDZ 3-4",automated holdup,"peptide, crude extract","concentration not given, uncorrected, unit not given","reference: biotin control resin, higher = stronger binding",binding intensity,0.354
difelikefalin,,,Japanese haemodialysis patients with pruritus,"intravenous, 0.25 µg/kg, 8 weeks",,PGIC much worse,0%
B2 (STK38),CYB5R4 knockout human cells,"PP4 interaction, 3xFLAG-PP4C IP-MS",,concentration not given,reference: CYB5R4 KO over parental,log2 fold change,0.72
AAUGAGGAC (ssRNA),U2AF2,sequencing of bound RNA,RNA,motif only,,Kd,2.99 µM
VVVGACGVGK,HLA-A*11:01 peptide-β2M single-chain trimer,"western blot, measured: pMHC-I","peptide, 293T cells","6 h, unit not given, with: 100 µg/mL cycloheximide",reference: time zero,remaining protein,0.856 and 0.875 and 0.863
Peginesatide,UT7/EPO,"microarray, measured: OSM mRNA (probe set 230170_at)",,"20 nM, 90 min",reference: vehicle,mRNA level,36.6 fold
B3 (spindlin-3),CYB5R4 knockout human cells,"PP4 interaction, 3xFLAG-PP4C IP-MS",,concentration not given,reference: CYB5R4 KO over parental,log2 fold change,-0.07
